Assay results gathered from unrelated publications.
Numbered parts are unrelated; each lists some results of a single study.

Sample 1
Target: RING finger protein unkempt homolog, zinc fingers 1-6, GST-SBP tag (UNK, Homo sapiens, UniProt Q9C0B0, residues 30-357)
Technique: RNA Bind-n-Seq
Molecule type: RNA
Matrix: in vitro
Tested at: not given
Setting: RNA with constant flanks, human and mouse sites, ends assumed
Baseline: input RNA pool
Direction: higher = stronger binding
Quantity: bound/input enrichment
Shared flanks, not repeated: GGGAGUUCUACAGUCCGACGAUC … CAACAGAGGAUUGAGCAUCA
Residues (chain): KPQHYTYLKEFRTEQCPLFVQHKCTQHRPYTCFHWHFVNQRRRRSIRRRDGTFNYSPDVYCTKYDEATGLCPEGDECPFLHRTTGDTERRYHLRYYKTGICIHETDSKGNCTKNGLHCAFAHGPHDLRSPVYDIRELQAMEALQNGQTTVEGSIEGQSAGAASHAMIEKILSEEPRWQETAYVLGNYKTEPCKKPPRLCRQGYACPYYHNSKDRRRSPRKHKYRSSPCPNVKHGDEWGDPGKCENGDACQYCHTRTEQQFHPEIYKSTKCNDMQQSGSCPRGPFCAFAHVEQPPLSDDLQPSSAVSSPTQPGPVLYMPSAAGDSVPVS
GCUAUAAAAAUAAUAGACAAGUCACAGCUGGAUGCAGUAAACCUUGAGAAAAUCUACCGAGAAGUACAGAUAAUGAAAAUGCUCGACCAUCCUCACAUCAUUAAACUGUAUCAGGUAAUG: 0.387 ratio
GUCUCAGAAGCUGCUGCUGACAGCCUCCAUGAUUUUAGAAUUAAUAUUUUGUCGAUUGAUGAUCUGGUUCUGGCUGACGGAGACAAAUCAGAUGGGGACCAGAGAGAGGAAGACUGUGUA: 3.04 ratio
GAGUUCCAAAGUGUAGUCCCUCCCAAAGUCAUUUGUGUGAGGCAGAGAAAGCCACACUCUGAACACAUUUCAUGUCUCAGGAAUUCACAUUCCAGAUUCAGGAAUUUUAUUCCAAAGUCC: 0.0879 ratio
UUACACUGUGGAAUCCCAGGGAGCAUUGUUUAGUUUAGGGGUAUAACUAGAAACACAACAAAUUCCCAGGAAAGCUCACUGGAGACUAUCAAGAUUUUGAUAGAGUGAGAUCUAUUCAUG: 0.468 ratio
AAAAAUCCAGGAAUCACCUCAGCAGUAAAUAAAAUAAAUAAUAUUGACAAUAUGUACCGAAAUUUCCAAAUGGAAGUGCUAUCUGGAGAGCAGAACAUGAUGACAAAGGUUCGAGAAAAC: 0.74 ratio
CAUUUUCUUACAUUUUCCUGUGAUUUUCGAAACUAAACCAUUGUGUGUCCUGUAGUGUCCUGGUUGAGCUGCCGCUCAGCAGCUUCCUCGGGGGGAUUUGGAACACCUGUGUCUGUCGCC: 0.27 ratio
AGGUCCAGUGUAUCUAAGGUGCCCUUAUUGCUUCCAAAUGUUUCUGCUUUGGAAUCUCAAAUAGAAAUGGGCAACAUAGUUAAACCCAAAGUACUUACGAAAGAAGCAGAGGAAAAACUU: 0.201 ratio
UUUCUCAAAUCCCUAAAUUUCUGAUUUCCAUUCAAGUCUUUUAAACUCUUUCCUGCUGAAUAGCAAAGAACUUUUAUUUUCCACUUUCCUAUAUUCCUAAAAAGUGUGAACAAUGCGUUU: 0.385 ratio
AUAUCUUAUUGCCAUAAACUCCAUGUGGUUCACAGAGACUUAAAACCAGAGAAUGUAGUCUUCUUUGAAAAACAAGGUCUUGUAAAGUUGACAGACUUUGGGUUCAGCAACAAAUUUCAA: 0.141 ratio
CUAAAUACCAUUCCAUUGUUUGUGCAGCUGCUUUAUUCUCCCAUUGAAAACAUCCAAAGAGUAGCUGCAGGGGUCCUCUGUGAACUUGCUCAGGACAAGGAAGCUGCAGAAGCUAUUGAA: 0.324 ratio
AAUCUUCAAUGAGUAGACAUAUUCCUCAGUUCUGUGGUGUUCUCGGUCACACAUUUAUGGAGUUUCUGAAGGGCAGUGGAGAUUACUGCCAGGCACAGCACGACCUCUAUGCAGACAAGU: 0.29 ratio

Sample 2
Target: Sal-like protein 4, full length isoform B (SALL4, Homo sapiens, UniProt Q9UJQ4-2, residues 1-616)
Technique: universal PBM
Molecule type: double-stranded DNA, one strand shown
Matrix: in vitro
Tested at: not given
Setting: 8-mer, flanks averaged, mean of replicates
Direction: higher = stronger binding
Quantity: E-score
GGTGCAAA: -0.0426
ATGCAGAG: -0.0548
AGCACGAG: 0.0377
ACGCGACG: -0.156
GTCATGCA: 0.0413
AAGCTGAT: -0.0757
AAGCGGAG: -0.158
CGCTTGGA: -0.148
ATCACACA: 0.181
ATCAAGTC: 0.123
GAAGAGAC: 0.00928
TCTGCCCA: -0.182
CAAAGGCG: -0.16
CGGCAGCA: -0.175
AGAACCCC: -0.227
ACAGCGAA: 0.0557

Sample 3
Target: RNA binding protein fox-1 homolog 2, RRM domain, GST-SBP tag (RBFOX2, Homo sapiens, UniProt O43251-10, residues 100-194)
Technique: RNA Bind-n-Seq
Molecule type: RNA
Matrix: in vitro
Tested at: 365 nM
Setting: natural RNA segment, single round, ends assumed
Baseline: no-protein control
Direction: higher = stronger binding
Quantity: RBNS enrichment (R)
Shared flanks, not repeated: GGGAGUUCUACAGUCCGACGAUC … UGGAAUUCUCGGGUGCCAA
Target sequence (chain): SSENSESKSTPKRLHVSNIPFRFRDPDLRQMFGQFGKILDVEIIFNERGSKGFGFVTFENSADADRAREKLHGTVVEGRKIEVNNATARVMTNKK
UGAAGAUAGACUGUUGGAGUGGACCACGGCCAAGCUUGCUCCGUCCUCGGACAGGAAGCCACCCUGCGUGGGGGACUGCAGGCACGCAAAAUAAAAUAACUCCUGCUCGU: 0.184
CCUGUUGUGUUCCAUGUGCUUUCACCUCUGCCUCAUCUUUCCUCCCGUCCCUGCCCCGCCACCUCCCCAAAGAAUUGAAACGUCAGCUCAGGAUAUGGGGCCAAUCUCUG: 0.316
CAACAAAUAUCUUGUGUUGUCCUUUUGUCUUCUCUGUCUCAGACUUUUGUACAUCUGGCUUAUUUUAAUGUGAUGAUGUAAUUGACGGUUUUUUAUUAUUGUGGUAGGCC: 0.796
CCGAGGGAAGAAGGUGCGUCGGAGUGGCAGAUGCAGGAAAUGAGCUGUCUAUUAGCCUUGCCUGCCCCACCCAUGAGGUAGGCAGAAAUCCUCACUGCCAGCCCCUCUUA: 0.316
AUCCUCUGCUGCCCGGGGCAUUGGAGCCCCUGUGCUAGGAAGCUGUCAGUUUUGAGUAUCAUUGGCCCUUUCCAGCACAUGGGUGAGAAAACAGGCCACGACUUGUCACU: 0.369
UUUUUUGUGUUAGGUGCUUUGGCUGAACUUGAUUCCAGCCCCCUUUUCCCUUUGGUGUUGUGUAUGUCUCUUCAUUUCCUCUCAAAUCUUCAACUCUUGCCCCAUGUCUC: 1.2
UCUCACCAUCACUGUCCUCCAGGGGCCUCGGACUUUUAGUACUCAAGGCAUGAUGUGGCAGUAGCUGCUUCCCCUACCACUAGCUGCCCCCUCAUGGUCGUCUGGGGGAC: 0.918
GCAGCCUUCCAUCUCCUGCACUGGCUGAGUCCAUUUACUUGUGUACUUGUUCUAGUGAGUGGUGGGACUGUACAUUUUUGAAUAGACCUCAAAAAUACUUCAUUCUGCUG: 0.557
AAUAUUUCUUCGUAUAGUUUAUUCUUUCUUUUAUAUAUUAUCUAAAUAUAUGUAUAUGUUGUGUAAUACACAUAAUCUGGAAAUGAAUAAAAUGCUAUAUUCUUGGUUUG: 0.557
AAUGGGCAAUCUACUGAACUUCCAGAUCAAUGCUUUGUUGGAAAGUGAUGAAUUUAAGAGAGUUUUAACAUGUCAAAUUUGAAGCCAAUUCAGUAUCCUUAUUUGUUCCA: 0.675
GAGAAACCGUGCUCUCUAAGUUUGUUCUCUGCUUUGACCCCACUUUUAUAGCUGUCUUUGCAUCUUUGAUAAAACUUCCACUUGAAUUUGGCACUGAUAAUAAUUAUUGC: 0.559
CAGAGAGCUGCACCCUGCACGGGGCACCGCACCGCUUCCCUCCGCGCAGCUCUUCUGCCUGGUUUUCGGAGGCCAGGCUGCUGGGAAGCUUCCGUGUUCCUGUCAGUCCU: 1.08

Sample 4
Target: Interferon regulatory factor 3, full length, phosphomimetic (IRF3, Homo sapiens, UniProt Q14653, residues 1-427, S386D/S396D/S398D/S402D/T404D/S405D)
Technique: protein-binding microarray
Molecule type: double-stranded DNA, one strand shown
Matrix: in vitro
Tested at: 2540 nM top
Setting: 60-bp whole probe
With: salmon DNA 0.4 mg/ml
Baseline: random background probes
Direction: higher = stronger binding
Quantity: fitted relative affinity
Shared flanks, not repeated: GCCTAGCAC … GTCTTGATTCGCTTGACGCTGCTG
Residues (chain): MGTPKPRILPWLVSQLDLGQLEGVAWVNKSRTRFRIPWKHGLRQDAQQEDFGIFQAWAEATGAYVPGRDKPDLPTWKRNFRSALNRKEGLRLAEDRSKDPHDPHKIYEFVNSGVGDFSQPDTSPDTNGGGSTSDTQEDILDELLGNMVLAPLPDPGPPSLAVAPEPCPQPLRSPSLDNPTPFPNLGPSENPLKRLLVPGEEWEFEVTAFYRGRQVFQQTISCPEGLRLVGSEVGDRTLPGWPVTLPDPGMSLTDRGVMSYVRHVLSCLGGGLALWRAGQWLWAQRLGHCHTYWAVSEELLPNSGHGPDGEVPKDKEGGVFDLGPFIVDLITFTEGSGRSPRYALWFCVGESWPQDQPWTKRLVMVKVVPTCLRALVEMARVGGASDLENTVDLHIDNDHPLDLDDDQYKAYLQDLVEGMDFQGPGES
GACGATCTCAGTTTCCAGACGTGCTAG: 3.52 z-score
TCAAGTGTCAATAATGACACTGTGCTA: -0.0799 z-score
TCAGATATCAGTCTCGATTAGTGCTAG: 1.73 z-score
TCATGTTTGGTTCTGATACTGTGCTAG: 0.759 z-score
GTTTTTTGGTTTCTGGTTTAGTGCTAG: 3.86 z-score
TCAATTTTTACCCTCCTACTGTGCTAG: 0.654 z-score
TTAGGTCTCCTACTGCTATAGTGCTAG: 0.966 z-score
TCAAAATTAGTGTTTGCCACTGTGCTA: -0.414 z-score
CTCTAAGACACAAGATCAGAGTGCTAG: -0.173 z-score
TTAGGACTGGTTTTCGGTTAGTGCTAG: 1.65 z-score
GACGGTCGCCTTATCCTGACGTGCTAG: 0.729 z-score
TCAACTTTCCATTTCTGACTGTGCTAG: 6.44 z-score
TTAGAACTGTGGTATCGATTAGTGCTA: 0.018 z-score
TTAGATTTCGGGACAGGATTAGTGCTA: 1.2 z-score
CGCTTTTTTTTTTTTTTTTTGTGCTAG: 0.875 z-score
TTAGGTATCGACTTTCGGTCAGTGCTA: 1.28 z-score
CACGGTATCCTTATCCTGACGTGCTAG: 4.86 z-score
TTTATTTTCAGTATTACCTCGTGCTAG: 2.4 z-score
TCAAGAATCACAACTAGGACTGTGCTA: 0.353 z-score
CTAGGTATCGGGTTTCGGTTAGTGCTA: 3.83 z-score
TCATTCCTCTTTTTTGTACTGTGCTAG: 2.07 z-score
TTAGGTATCGACAATGGGTTAGTGCTA: -0.129 z-score
TCAAGAATGTTTTTCATACTGTGCTAG: 0.156 z-score
TTAGGTATCGACTATCGGTTCGTGCTA: 0.722 z-score
AAACGGATGATCTCTCTGGGCGTGCTA: -0.187 z-score

Some of these lines once more (sample 1):
AGGUCCAGUGUAUCUAAGGUGCCCUUAUUGCUUCCAAAUGUUUCUGCUUUGGAAUCUCAAAUAGAAAUGGGCAACAUAGUUAAACCCAAAGUACUUACGAAAGAAGCAGAGGAAAAACUU: 0.201 ratio
GAGUUCCAAAGUGUAGUCCCUCCCAAAGUCAUUUGUGUGAGGCAGAGAAAGCCACACUCUGAACACAUUUCAUGUCUCAGGAAUUCACAUUCCAGAUUCAGGAAUUUUAUUCCAAAGUCC: 0.0879 ratio
CAUUUUCUUACAUUUUCCUGUGAUUUUCGAAACUAAACCAUUGUGUGUCCUGUAGUGUCCUGGUUGAGCUGCCGCUCAGCAGCUUCCUCGGGGGGAUUUGGAACACCUGUGUCUGUCGCC: 0.27 ratio
GCUAUAAAAAUAAUAGACAAGUCACAGCUGGAUGCAGUAAACCUUGAGAAAAUCUACCGAGAAGUACAGAUAAUGAAAAUGCUCGACCAUCCUCACAUCAUUAAACUGUAUCAGGUAAUG: 0.387 ratio
AUAUCUUAUUGCCAUAAACUCCAUGUGGUUCACAGAGACUUAAAACCAGAGAAUGUAGUCUUCUUUGAAAAACAAGGUCUUGUAAAGUUGACAGACUUUGGGUUCAGCAACAAAUUUCAA: 0.141 ratio
AAUCUUCAAUGAGUAGACAUAUUCCUCAGUUCUGUGGUGUUCUCGGUCACACAUUUAUGGAGUUUCUGAAGGGCAGUGGAGAUUACUGCCAGGCACAGCACGACCUCUAUGCAGACAAGU: 0.29 ratio
